Assay results collected from several papers.
Protocols differ between the studies behind these lines. “And” joins repeats or separate records; there may be more than shown. ± gives the spread as reported.
BCL2L1: BCL2L1 fragment (Homo sapiens)
KEAP1: KEAP1 321-609 (Homo sapiens, UniProt Q14145)
Chain of UniProt Q14145 (whole entry, looked up): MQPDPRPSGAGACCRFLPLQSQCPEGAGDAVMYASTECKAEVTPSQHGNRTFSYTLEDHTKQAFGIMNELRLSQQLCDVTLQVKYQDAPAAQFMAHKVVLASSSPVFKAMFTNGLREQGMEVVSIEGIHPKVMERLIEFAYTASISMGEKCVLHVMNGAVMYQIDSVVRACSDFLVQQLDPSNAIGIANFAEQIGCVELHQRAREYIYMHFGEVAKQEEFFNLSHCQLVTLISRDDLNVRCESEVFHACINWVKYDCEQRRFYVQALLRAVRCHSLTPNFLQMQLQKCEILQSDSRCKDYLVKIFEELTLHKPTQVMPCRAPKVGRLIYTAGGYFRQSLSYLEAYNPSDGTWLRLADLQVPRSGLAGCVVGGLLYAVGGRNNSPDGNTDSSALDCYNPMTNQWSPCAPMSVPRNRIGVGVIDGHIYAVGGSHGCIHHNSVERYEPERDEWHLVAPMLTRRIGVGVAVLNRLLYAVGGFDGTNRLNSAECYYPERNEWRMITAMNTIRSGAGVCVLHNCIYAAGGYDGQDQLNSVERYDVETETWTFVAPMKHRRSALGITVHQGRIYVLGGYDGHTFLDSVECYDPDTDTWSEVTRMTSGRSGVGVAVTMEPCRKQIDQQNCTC
PCNA: PCNA (Homo sapiens, UniProt P12004)
Chain of UniProt P12004 (whole entry, looked up): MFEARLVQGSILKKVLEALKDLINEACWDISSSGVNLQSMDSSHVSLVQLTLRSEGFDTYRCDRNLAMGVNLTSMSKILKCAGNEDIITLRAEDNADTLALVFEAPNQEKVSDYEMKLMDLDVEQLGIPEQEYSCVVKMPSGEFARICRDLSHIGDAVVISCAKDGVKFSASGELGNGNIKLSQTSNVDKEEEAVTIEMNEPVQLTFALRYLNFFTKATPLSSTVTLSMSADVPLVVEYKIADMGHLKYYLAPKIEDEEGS
PPARG: PPARG 202-477 (Homo sapiens, UniProt P37231-2)
Crebbp: Crebbp 340-439 (Mus musculus, UniProt P45481)
Chain of UniProt P45481 (whole entry, looked up): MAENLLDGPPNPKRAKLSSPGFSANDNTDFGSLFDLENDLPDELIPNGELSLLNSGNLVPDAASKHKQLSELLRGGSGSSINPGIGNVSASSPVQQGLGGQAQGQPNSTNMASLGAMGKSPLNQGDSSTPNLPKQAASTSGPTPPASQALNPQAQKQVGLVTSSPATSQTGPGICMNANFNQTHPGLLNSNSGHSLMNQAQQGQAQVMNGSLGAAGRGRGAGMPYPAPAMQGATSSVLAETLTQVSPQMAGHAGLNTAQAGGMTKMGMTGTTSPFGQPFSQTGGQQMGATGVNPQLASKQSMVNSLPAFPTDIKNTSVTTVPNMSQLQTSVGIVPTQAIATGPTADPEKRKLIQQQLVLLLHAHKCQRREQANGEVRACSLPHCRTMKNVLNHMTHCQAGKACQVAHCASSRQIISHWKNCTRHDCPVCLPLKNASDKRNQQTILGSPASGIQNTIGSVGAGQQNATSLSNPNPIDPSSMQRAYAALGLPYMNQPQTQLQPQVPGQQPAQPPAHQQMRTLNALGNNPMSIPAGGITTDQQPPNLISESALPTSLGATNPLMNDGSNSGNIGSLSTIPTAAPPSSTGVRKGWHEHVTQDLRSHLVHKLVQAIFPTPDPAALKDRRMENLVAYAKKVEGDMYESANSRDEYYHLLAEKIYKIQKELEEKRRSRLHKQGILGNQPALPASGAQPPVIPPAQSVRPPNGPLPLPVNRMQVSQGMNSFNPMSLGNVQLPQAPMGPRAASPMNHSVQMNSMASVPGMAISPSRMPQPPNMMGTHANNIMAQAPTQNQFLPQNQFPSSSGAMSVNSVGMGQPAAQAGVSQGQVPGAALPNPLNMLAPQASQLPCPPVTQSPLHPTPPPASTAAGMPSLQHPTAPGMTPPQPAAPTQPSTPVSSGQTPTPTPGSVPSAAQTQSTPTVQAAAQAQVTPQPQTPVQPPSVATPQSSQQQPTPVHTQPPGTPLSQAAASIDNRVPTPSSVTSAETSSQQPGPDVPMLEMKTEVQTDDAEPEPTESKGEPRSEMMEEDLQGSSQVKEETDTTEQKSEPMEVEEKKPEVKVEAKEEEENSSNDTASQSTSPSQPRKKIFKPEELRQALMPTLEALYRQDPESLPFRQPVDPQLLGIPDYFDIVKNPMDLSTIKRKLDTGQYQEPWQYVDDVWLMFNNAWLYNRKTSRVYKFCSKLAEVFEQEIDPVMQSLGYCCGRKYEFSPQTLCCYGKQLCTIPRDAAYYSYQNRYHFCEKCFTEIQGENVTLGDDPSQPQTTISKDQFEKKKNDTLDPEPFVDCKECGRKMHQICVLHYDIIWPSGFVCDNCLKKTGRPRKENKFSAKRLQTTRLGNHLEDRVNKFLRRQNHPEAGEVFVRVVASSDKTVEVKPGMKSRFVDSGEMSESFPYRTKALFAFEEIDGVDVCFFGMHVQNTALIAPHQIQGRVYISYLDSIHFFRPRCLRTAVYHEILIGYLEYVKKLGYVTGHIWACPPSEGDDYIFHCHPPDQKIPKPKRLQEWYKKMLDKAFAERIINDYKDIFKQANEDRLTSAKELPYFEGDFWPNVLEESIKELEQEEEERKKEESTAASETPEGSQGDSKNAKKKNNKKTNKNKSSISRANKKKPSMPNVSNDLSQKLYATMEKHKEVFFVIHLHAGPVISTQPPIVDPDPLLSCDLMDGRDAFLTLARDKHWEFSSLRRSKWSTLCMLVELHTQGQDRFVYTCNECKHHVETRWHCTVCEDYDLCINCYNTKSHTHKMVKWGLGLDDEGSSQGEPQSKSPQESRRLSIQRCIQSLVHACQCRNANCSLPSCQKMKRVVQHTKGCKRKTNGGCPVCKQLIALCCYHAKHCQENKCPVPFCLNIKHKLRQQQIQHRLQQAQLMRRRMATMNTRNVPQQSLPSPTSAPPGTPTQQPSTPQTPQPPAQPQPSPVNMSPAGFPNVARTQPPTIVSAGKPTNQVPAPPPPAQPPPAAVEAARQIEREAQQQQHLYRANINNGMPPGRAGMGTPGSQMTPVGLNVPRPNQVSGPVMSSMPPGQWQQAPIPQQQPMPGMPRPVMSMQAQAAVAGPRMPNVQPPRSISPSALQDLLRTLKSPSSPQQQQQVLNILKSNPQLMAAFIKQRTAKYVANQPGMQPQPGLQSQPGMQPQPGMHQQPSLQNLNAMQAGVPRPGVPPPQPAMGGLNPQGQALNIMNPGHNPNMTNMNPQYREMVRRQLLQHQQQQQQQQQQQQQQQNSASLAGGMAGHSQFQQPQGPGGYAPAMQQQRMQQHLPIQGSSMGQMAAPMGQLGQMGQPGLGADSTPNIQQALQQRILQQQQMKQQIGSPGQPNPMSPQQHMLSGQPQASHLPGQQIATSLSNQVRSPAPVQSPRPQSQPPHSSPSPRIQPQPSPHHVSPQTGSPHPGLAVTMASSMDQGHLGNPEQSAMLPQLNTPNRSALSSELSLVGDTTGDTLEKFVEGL
IRF2BP2: IRF2BP2 fragment (Homo sapiens)
HCRTR2 del254-292/I293E/K294R/L160H/M161K/Q254E: Orexin receptor type 2 (HCRTR2, Homo sapiens, UniProt O43614, del254-292/I293E/K294R/L160H/M161K/Q254E)
Chain of UniProt O43614 (whole entry, unmodified, looked up): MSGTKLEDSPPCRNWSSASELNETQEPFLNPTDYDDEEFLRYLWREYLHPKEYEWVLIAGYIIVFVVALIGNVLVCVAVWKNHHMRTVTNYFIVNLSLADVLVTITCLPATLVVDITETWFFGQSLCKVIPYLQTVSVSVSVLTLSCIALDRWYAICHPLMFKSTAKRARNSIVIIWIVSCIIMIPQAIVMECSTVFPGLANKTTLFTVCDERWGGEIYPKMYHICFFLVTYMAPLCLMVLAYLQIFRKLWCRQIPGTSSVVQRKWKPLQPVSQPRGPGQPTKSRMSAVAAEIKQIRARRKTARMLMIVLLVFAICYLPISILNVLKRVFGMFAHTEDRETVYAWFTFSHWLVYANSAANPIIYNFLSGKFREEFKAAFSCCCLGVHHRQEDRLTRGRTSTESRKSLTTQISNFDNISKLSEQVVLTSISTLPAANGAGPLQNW
Mcl1 152-308: Mcl1 152-308 (Mus musculus, UniProt P97287)
Chain of UniProt Q9NWS0 (whole entry, looked up): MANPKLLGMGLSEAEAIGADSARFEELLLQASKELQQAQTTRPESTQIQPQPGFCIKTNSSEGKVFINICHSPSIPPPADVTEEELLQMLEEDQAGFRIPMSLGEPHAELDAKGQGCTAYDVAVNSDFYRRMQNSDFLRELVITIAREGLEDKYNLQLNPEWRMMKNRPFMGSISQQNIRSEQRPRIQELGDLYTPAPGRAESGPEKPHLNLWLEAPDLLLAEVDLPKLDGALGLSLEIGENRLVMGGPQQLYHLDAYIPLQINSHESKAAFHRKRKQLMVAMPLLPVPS
Chain of UniProt P97287 (whole entry, looked up): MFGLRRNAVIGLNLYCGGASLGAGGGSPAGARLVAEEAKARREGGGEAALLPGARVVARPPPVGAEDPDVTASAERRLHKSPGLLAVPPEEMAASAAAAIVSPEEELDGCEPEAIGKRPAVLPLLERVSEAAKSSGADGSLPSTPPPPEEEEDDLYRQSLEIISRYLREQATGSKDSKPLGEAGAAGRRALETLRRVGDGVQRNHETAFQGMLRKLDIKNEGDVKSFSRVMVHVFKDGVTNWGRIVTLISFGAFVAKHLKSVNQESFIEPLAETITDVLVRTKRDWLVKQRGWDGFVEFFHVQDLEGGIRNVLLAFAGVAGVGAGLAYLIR
Chain of UniProt P06748 (whole entry, looked up): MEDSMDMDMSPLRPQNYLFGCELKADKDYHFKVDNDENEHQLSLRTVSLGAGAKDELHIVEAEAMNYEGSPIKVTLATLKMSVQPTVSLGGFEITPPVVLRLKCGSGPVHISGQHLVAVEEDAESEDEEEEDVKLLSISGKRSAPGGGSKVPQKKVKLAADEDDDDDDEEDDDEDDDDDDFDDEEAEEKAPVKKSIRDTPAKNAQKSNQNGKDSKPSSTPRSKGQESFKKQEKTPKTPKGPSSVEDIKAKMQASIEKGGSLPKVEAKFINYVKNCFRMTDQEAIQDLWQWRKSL
Chain of UniProt P53299 (whole entry, looked up): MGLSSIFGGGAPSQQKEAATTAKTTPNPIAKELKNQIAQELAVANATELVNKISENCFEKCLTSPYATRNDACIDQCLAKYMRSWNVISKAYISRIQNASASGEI
Chain of UniProt O95619 (whole entry, looked up): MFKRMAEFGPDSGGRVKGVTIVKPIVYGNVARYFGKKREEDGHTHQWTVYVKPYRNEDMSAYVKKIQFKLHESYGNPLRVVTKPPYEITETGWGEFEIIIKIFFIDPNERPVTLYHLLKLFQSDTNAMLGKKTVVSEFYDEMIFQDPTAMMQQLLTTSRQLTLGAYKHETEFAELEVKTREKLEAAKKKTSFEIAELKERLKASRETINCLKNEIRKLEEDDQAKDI

`CLIC4 NLS peptide (Homo sapiens) (sequence not shown)` gave a Kd of 309 ± 15.1 µM (KPNA2 fragment (Homo sapiens); fluorescence titration).
`QDASTKKLSECLKRIGDELDSNMEL (BAX BH3 peptide (Homo sapiens); N-acetyl, C-terminal amide)` gave a Kd of 0.12 µM (BCL2L1; ITC; peptide).
`Histone H3.1 fragment (Homo sapiens) (sequence not shown)` gave a Kd of 11.8 ± 1.4 µM (WDR5 fragment N130A (Homo sapiens); ITC).
The Kd of `SAKAADDPENGERESHTPVS (BPTF 584-603; N-acetyl, C-terminal amide)` is reported as 0.98 µM (KEAP1; ITC; peptide).
For `brain natriuretic peptide`, “limit of detection” read ~1.23 nM (hly (Staphylococcus aureus, UniProt P09616); nanopore sensing; symmetric electrolyte).
`KRRQKRITEYYHSKR (designed peptide; C-terminal amide)` has a Kd of 0.0067 µM (PCNA; SPR; designed binder).
For `insulin human`, the fold change was 1.83 (measured: AKT3 mRNA; uninfected mouse, brain; i.p., dose not given; baseline: PBS).
With `Polymyxin B` the survival was 0% (mouse; intraperitoneal, 40 mg/kg single dose, day 7).
For `DLDSDDEY (TELO2 488-494 (Homo sapiens); pS491)`, the Kd was 10.3 µM (PIH1D1 51-180 (Homo sapiens, UniProt Q9NWS0); ITC; peptide).
The Kd of `RVYPVSVPYSSAQSTSKTSVTLSLVMPSQ (Tab1 residues 384-412 (Mus musculus))` is reported as 3.4 µM (Mapk14 I275G (Mus musculus, UniProt P47811); ITC; peptide).
With `LTARHKILHRLLQEGSPSD (NCOA1 peptide; N-terminal 5-FAM)` the Kd was 76.9 µM and 51.8 µM (PPARG; FP; peptide).
`NLFDDNIDIFADLT (WASHC2A 1261-1274 (Homo sapiens))` gave a Kd of 6.96 ± 0.12 µM (SNX27 (Homo sapiens, UniProt Q96L92-3); ITC; peptide).
`PRPRPRPRPRPRPRPRPRPRPRPRPRPRPRPRPRPRPRPRPRPRPRPRPRPRPRPRPRPR (poly-PR 30 repeats)` gave a Kd of 0.0823 µM (NPM1 (Homo sapiens, UniProt P06748); BLI; peptide).
For `ATGGVKKPHRY (Histone H3.1 32-42 (Homo sapiens, UniProt P68431); sequence looked up)`, the Kd was 950 ± 25 µM (YEATS4 19-159 (Homo sapiens, UniProt O95619); ITC; peptide; with: histone H3 peptide).
`SSFKYL (designed peptide; FITC label)` gave a Kd of 212 µM (NHERF2 142-254 (Homo sapiens, UniProt Q15599-1); fluorescence intensity change, fluorescence titration; peptide).
For `RPNESDSDDLDDY (ECD 499-510 (Homo sapiens); pS505)`, the Kd was 16.1 µM (PIH1D1 1-180 (Homo sapiens, UniProt Q9NWS0); ITC; peptide).
`SDLACRLLGQSMDESGLPQLTSYDCEVNAPIQGSGSGSRNLLQGEELLRALDQVN (HIF1A 776-826 807-811 replaced by (GS)2 (Homo sapiens, UniProt Q16665); sequence looked up)` has a Kd of 0.12 µM (Crebbp; fluorescence polarisation).
`RPDRETRASVIKKTSDITQ (IRF2 residues 325-343 (Homo sapiens))` gave a Kd of 1.59 µM and 1.43 µM and 1.67 µM and 2 µM (IRF2BP2; ITC; peptide).
With `Nociceptin` the ΔF/F0 was -0.626 and 0.232 and 1.5 and -1.57 and 0.192 (HCRTR2 del254-292/I293E/K294R/L160H/M161K/Q254E; sensor fluorescence, fluorescence imaging; HEK293T; concentration not given, unit not given; baseline: baseline).
`KRRQTSMEDFYHSKR (CDKN1A residues 141-155 T148E; C-terminal amide)` has a Kd of 0.0774 µM (PCNA; SPR; peptide).
The Kd of `PSSTMGQVGRQLAIIGDDINRRYDS (BAK1 BH3 peptide (Homo sapiens); N-acetyl, C-terminal amide)` is reported as 0.028 µM (BCL2L1; ITC; peptide).
`SDLACRLLGQSMDESGLPQLTSYDCEVNAPIQGSGSRNLLQGEELLRALDQVN (HIF1A 776-826 807-811 replaced by GS linker (Homo sapiens, UniProt Q16665); sequence looked up)` has a Kd of 0.07 µM (Crebbp; fluorescence polarisation).
The Kd of `KRGWTDDLCYGTGA (TIM23 91-103 (Saccharomyces cerevisiae))` is reported as 613 µM (Tim13 (Saccharomyces cerevisiae, UniProt P53299); SPR; peptide).
`KRRQRSIMSFFHSKR (CDKN1A/LIG1 chimeric PIP-box peptide; C-terminal amide)` has a Kd of 0.0407 µM (PCNA; SPR; peptide).
With `FSIVGTTYPINC (GABRA3 peptide 368-379 N369S)` the Kd was 7.92 µM (Gphn (Rattus norvegicus, UniProt Q03555); competition titration, magnetic tweezers; peptide).
The leg extraction of `glucagon` is reported as 41% and 40.6% (isotope dilution; human, non-diabetic; baseline, no infusion).
For `ERQQNRPSVITCASAG (VGLL4 residues 156-171 (Homo sapiens))`, the Kd was 1.4 µM and 1.04 µM and 1.63 µM and 1.55 µM (IRF2BP2; ITC; peptide).
For `ANGNANEENGEQEADNEVD (PTMA 35-53, isoform 2; N-acetyl, C-terminal amide)`, the Kd was 2.93 µM (KEAP1; ITC; peptide).
`EEEWAREAGAQLRRAADDLNAQYERRR (PUMA residues 130-156 M144A/I137A; N-acetyl, C-terminal amide)` has a Kd of 0.019 ± 0.004 µM (Mcl1 152-308; SPR; peptide).
The Kd of `EEQWAREIGAQLRRMADDLNAQYER (BBC3 BH3 peptide 68-92 (Homo sapiens); N-acetyl, C-terminal amide)` is reported as 0.033 ± 0.007 µM (BCL2L1 BCL-xL ΔC H to A (Homo sapiens); ITC; peptide).
The Kd of `RNNIKQAANNSLLLHLLKSQTIP (NRIP1 peptide; N-terminal 5-FAM)` is reported as 2.14 µM (PPARG; FP; peptide).
With `nonaarginine` the kon was 1.45e+07 ± 1.5e+06 M⁻¹ s⁻¹ (PorA peptide pore; peptide binding, planar bilayer single-channel recording; 0.5 µM, pH 7.4, -20 mV, cis side, 150 mM KCl).
`heparin sodium` — result for “elevated blood uric acid”: 0% (healthy Chinese adult volunteers; continuous intravenous infusion, 8 IU/kg/h, 5 days).
The Kd of `HIKTHLDEETGEKTSITLDV (PALB2 83-102; N-acetyl, C-terminal amide)` is reported as 0.13 µM (KEAP1; ITC; peptide).
`TSLFEEDEEDDLFAIAK (WASHC2A 662-678 (Homo sapiens))` gave a Kd of 68.8 ± 1.27 µM (SNX27 (Homo sapiens, UniProt Q96L92-3); ITC; peptide).
`YWISNSWTTYRYVSTC (engineered peptide)` has a Kd of 0.3 ± 0.007 µM (VPS26A/VPS35 VPS35  subcomplex (Homo sapiens); ITC; peptide).
For `SSASSEDYIIILPECFDTSRPLGDS (NBR1 725-749 (UniProt Q14596); FITC label)`, the Kd was 5.82 ± 0.66 µM (TAX1BP1 346-506 (Homo sapiens, UniProt Q86VP1); FP; peptide).
`HVLVMSATRR` gave a calcium of 9.7 mg/dL and 8.5 mg/dL and 9.1 mg/dL and 9.6 mg/dL (peptide, C57BL/6J mice, male, serum; subcutaneous osmotic pump, 3 mg/kg/day peptide basis, 8 weeks).
For `GLFSDEEDSEDLFSSQS (WASHC2A 536-552 (Homo sapiens))`, the Kd was 29.2 ± 0.28 µM (SNX27 fragment (Homo sapiens); ITC; peptide).
For `EEEWAREIGAYLRRAADDLNAQYERRR (PUMA residues 130-156 M144A/Q140Y; N-acetyl, C-terminal amide)`, the Kd was 0.00031 ± 0.00011 µM (Mcl1 152-308; SPR; peptide).
The Kd of `SIFDDDMDDIFSSG (WASHC2A 1289-1302 (Homo sapiens))` is reported as 19 ± 0.28 µM (SNX27 (Homo sapiens, UniProt Q96L92-3); ITC; peptide).
For `SLEEPHSPETGEKVVAGEVN (AMER1 280-299)`, the Kd was 1.6 µM (KEAP1; ITC; peptide).
With `RASVIKKT (IRF2 residues 331-338 (Homo sapiens))` the Kd was 7.44 µM and 6.05 µM (IRF2BP2; ITC; peptide).
For `neuropeptide FF`, the ΔF/F0 was 1.3 and 0.405 and -0.138 and -0.0834 and 0.32 and -2.23 and 0.0229 and -2.29 (HCRTR2 del254-292/I293E/K294R/L160H/M161K/Q254E; sensor fluorescence, fluorescence imaging; HEK293T; concentration not given, unit not given; baseline: baseline).
`SQSTLSPNASVFKPSRS (upa1 128-144 (Ustilago maydis, UniProt A0A0D1E015); sequence looked up)` has a Kd of 15 µM (pab1 567-636 (Ustilago maydis, UniProt Q4P8R9); ITC; peptide).
The inhibition of `aspterric acid` is reported as 99.2% (root length; Arabidopsis thaliana Col-0 seeds; 50 µg/mL, seed germination; baseline: water control).
`GRGRGRGRGRGRGRGRGRGRGRGRGRGRGRGRGRGRGRGRGRGRGRGRGRGRGRGRGRGR (poly-GR 30 repeats)` has a Kd of 0.00076 µM (G3BP1 1-411 (Homo sapiens, UniProt Q13283); BLI; peptide).
With `NPFPLLEDEDDLFTDQK (WASHC2A 1197-1213 (Homo sapiens))` the Kd was 31.7 ± 0.57 µM (SNX27 fragment (Homo sapiens); ITC; peptide).
The Kd of `YIKTPLGTFPNRHGC (engineered peptide)` is reported as 0.096 ± 0.001 µM (VPS35/VPS26A/VPS29 retromer complex (Homo sapiens); ITC; peptide).

For quick reference, copied from above:
`KRRQKRITEYYHSKR (designed peptide; C-terminal amide)` has a Kd of 0.0067 µM (PCNA; SPR; designed binder).
For `insulin human`, the fold change was 1.83 (measured: AKT3 mRNA; uninfected mouse, brain; i.p., dose not given; baseline: PBS).
With `Polymyxin B` the survival was 0% (mouse; intraperitoneal, 40 mg/kg single dose, day 7).
For `DLDSDDEY (TELO2 488-494 (Homo sapiens); pS491)`, the Kd was 10.3 µM (PIH1D1 51-180 (Homo sapiens, UniProt Q9NWS0); ITC; peptide).
The Kd of `RVYPVSVPYSSAQSTSKTSVTLSLVMPSQ (Tab1 residues 384-412 (Mus musculus))` is reported as 3.4 µM (Mapk14 I275G (Mus musculus, UniProt P47811); ITC; peptide).
With `LTARHKILHRLLQEGSPSD (NCOA1 peptide; N-terminal 5-FAM)` the Kd was 76.9 µM and 51.8 µM (PPARG; FP; peptide).
